# Assay results collected from several papers.
# A part holds a random share of what one study measured.

# Study 1
# Target: PABPC1L2, full length, GST fusion (mouse, UniProt A0ABA7IW68)
# Method: RNAcompete
# Molecule type: RNA
# Matrix: in vitro
# Concentration: 20 nM
# Notes: 7-mer, probes averaged, single round
# Relative to: mean of 7-mers
# Reading: higher = stronger binding
# Construct (chain): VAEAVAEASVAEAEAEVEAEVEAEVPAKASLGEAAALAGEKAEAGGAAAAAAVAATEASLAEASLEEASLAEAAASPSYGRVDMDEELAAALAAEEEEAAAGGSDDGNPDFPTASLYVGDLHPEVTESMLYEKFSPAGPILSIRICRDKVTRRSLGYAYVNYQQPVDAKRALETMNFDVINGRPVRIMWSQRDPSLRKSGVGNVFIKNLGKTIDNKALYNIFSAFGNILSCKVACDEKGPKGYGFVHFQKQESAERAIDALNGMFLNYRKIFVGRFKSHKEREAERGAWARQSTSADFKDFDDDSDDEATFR
Strand,7-mer Z-score
AGAUGCU,-0.304
UACUAAA,0.878
AGCUGUU,-0.423
CAACCAU,-0.146
UAUCAAG,-0.0554
UACAAUG,-0.0156
CAUAUGU,-0.209
UCGUCGC,-0.583
UUAAACU,0.149
UCAAAUG,-0.18
UGGUUCC,-0.159
CAAUCGA,-0.0264
AGAAGGA,0.108
ACACGAU,0.104
CGAGCGA,0.207
GAGGAGA,0.167
UUUAUCU,-0.269
CGAGCGG,0.0189
AGGCUCU,-0.0899
CACACUA,-0.012

# Study 2
# Target: Interferon regulatory factor 7, full length, phosphomimetic (IRF7, Homo sapiens, UniProt Q92985, residues 1-503, S471D/S472D/S475D/S476D/S477D/S483D/S484D/S487D)
# Sequence of UniProt Q92985 (whole entry, unmodified, looked up): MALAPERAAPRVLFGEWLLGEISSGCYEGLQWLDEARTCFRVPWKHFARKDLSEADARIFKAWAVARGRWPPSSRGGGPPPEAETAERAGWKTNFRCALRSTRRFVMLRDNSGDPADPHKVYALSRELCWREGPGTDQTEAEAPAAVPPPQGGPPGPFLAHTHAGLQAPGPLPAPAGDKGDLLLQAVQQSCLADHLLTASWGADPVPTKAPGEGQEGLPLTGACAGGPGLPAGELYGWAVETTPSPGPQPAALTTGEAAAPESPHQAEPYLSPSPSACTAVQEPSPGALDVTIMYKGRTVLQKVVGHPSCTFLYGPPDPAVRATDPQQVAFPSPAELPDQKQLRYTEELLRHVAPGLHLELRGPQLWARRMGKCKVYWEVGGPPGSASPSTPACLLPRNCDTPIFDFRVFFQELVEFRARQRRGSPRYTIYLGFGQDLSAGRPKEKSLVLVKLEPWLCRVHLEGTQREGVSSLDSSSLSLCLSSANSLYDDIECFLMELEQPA
# Method: protein-binding microarray
# Molecule type: double-stranded DNA, one strand shown
# Matrix: in vitro
# Concentration: 2200 nM top
# Notes: 60-bp whole probe
# With: salmon DNA 0.4 mg/ml
# Relative to: random background probes
# Reading: higher = stronger binding
# Constant ends, left off below: GCCTAGCAC … GTCTTGATTCGCTTGACGCTGCTG
Strand,fitted relative affinity
GACGATTTCAGTTCCGACACGTGCTAG,1.94 z-score
TTGGGTTTCCTTCTCCTTTAGTGCTAG,2.38 z-score
TTAGGTATCGGTCGCGGTTAGTGCTAG,0.332 z-score
TTAGGTAGCGGTCTCGGTTAGTGCTAG,0.0207 z-score
CTTGCTTTCCTACTGAAATAGTGCTAG,2.12 z-score
GACGGTTTCGGTTCAGGGACGTGCTAG,13 z-score
TTAGATCTCAGTCTAGATTAGTGCTAG,-0.235 z-score
AGTGTTTGCCCTATTTAAGAGTGCTAG,0.906 z-score
TTAGGTTTCTACTATCGGTTAGTGCTA,1.59 z-score
TCACTTCTCTTTTGGCTACTGTGCTAG,3.55 z-score
ATAGGTATCCTTATCCTTTAGTGCTAG,0.798 z-score
TTAGGACTGGGACTGGGTTAGTGCTAG,-0.826 z-score
GACGGTTACCTTATCCTGACGTGCTAG,0.863 z-score
TTAGGTATCGGGACCGGGTTAGTGCTA,-0.552 z-score
GACGATTTCAGGTTTCGAGACGTGCTA,2.95 z-score
GACGATTTCAGTATCGATACGTGCTAG,1.25 z-score
GACGGTTTGGGGACTGGGGACGTGCTA,0.568 z-score
TTCTCCATGGGTATGGCCTAGTGCTAG,0.185 z-score
GACGGTCTCGGTCCCGGGACGTGCTAG,-0.271 z-score
ATTTTTTTTTTCATCATTGCGTGCTAG,1.88 z-score
GGCTGTTTGGTCCTGAACCTGTGCTAG,0.106 z-score
TCATATTTAAGGCCTATGACTGTGCTA,-0.00898 z-score
TCATATTTGCTTCAGGTACTGTGCTAG,1.59 z-score
GACGCTTTCAGTATCGAGACGTGCTAG,2.8 z-score
TTAGGTTTCGACTATCGGTAAGTGCTA,3.2 z-score

# Study 3
# Target: Histone acetyltransferase KAT6A, winged helix 1, GST fusion (KAT6A, Homo sapiens, UniProt Q92794, residues 1-85)
# Method: protein binding microarray
# Molecule type: double-stranded DNA, one strand shown
# Matrix: in vitro
# Concentration: not given
# Notes: 8-mer, flanks averaged, mean of 2 arrays, mostly near background
# Relative to: not given
# Reading: higher = stronger binding
# Target sequence (chain): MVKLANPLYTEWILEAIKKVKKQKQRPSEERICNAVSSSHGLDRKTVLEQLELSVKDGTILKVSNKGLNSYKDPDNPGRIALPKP
Strand,E-score
GACTGCTA,-0.181
AAAAAGAG,-0.233
ACAAGACG,0.0433
CGATACAG,-0.137
AGGTAGAA,-0.21
GGACGCCC,0.168
CCACACCC,-0.101
CTGACTGA,-0.142
CTTGGAGC,-0.0906
ACTGGGTA,-0.0601
CAGTTGGA,0.0101
ATTGTCCG,0.168
AGAACGTC,-0.244
AGACTGGA,-0.194
CGCTTACG,0.344
AGCGACAC,-0.0648

# Study 4
# Target: RNA binding protein fox-1 homolog 2, RRM domain, GST-SBP tag (RBFOX2, Homo sapiens, UniProt O43251-10, residues 100-194)
# Method: RNA Bind-n-Seq
# Molecule type: RNA
# Matrix: in vitro
# Concentration: 365 nM
# Notes: natural RNA segment, single round, ends assumed
# Relative to: no-protein control
# Reading: higher = stronger binding
# Constant ends, left off below: GGGAGUUCUACAGUCCGACGAUC … UGGAAUUCUCGGGUGCCAA
# Target sequence (chain): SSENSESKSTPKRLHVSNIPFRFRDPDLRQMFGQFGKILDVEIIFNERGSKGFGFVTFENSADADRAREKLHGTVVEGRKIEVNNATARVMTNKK
Strand,RBNS enrichment (R)
CUCCAAGCUCCAUCUGCAAAGGAAGGAGGUCUUCCUAGCUGAGCCGACUGUACAUCUGCAGUCCCUCACUCAGGAGAUGGGAGCAGGAGGAUCAGGAGUUCAAGGUCAUC,0.299
CAUAAGUAUAAGAAAUAUGCAUCAUAUCUGCCUAUUGCAGGCUUCUGAAACUUGCACUGCCCAUCCAUGCAAAAAUAAGUAUCUUAAAUAAAAGCAGAGAGCAAAAACUG,0.35
UCUUGGGACUGGAAGAUAUGAUUCCCUUUCCAAUCAUCCCUUCUCUCUCCUGUCUAUACAUACACACCUACUGAAUAGAAGCCUAGCUGACAGUCUCUGAAUAGUGGUUU,0.419
ACAGUGCUCCUGGCCACCCAGCCUCUGCUGAGAACCAUUCCUGGGAUUAGAGCUGCCUUUCCCAGGGAAAAAGUGUCGUCUCCCCGACCCUCCCGUGGGCCCUGUGGUGU,0.408
UUUCUUAAGCGACUACAUCAUAUUUUAAAAUAUUAAUCCUUCAAUAAAGUGGCAAGUAUAAGAAAAUGGUAUAAAUAUAUAGACAAUCAUCAGAUAUUUAUUAAUUUAAU,0.459
AUUGUGAAAUGGAAAUGCUUUACAGGAAGUAAAUGCAAAUUACUUUUAAGUGUGCUUUAAAGAAAAAUAUUUUCCCCACAAGAGAAAUUUAAAUAAAGAAUUUUAUUUGU,1.36
UCAUCUGUACUAUUCUGUGUUACUCUUGGUUUCUGGCCACUUUUCAGAAUGAAGAUGAAUGGCCUGACCAGCUAUCUAGGGUUUGGGGAGAUGCAAAAUUGUAAAAUUCC,0.614
ACAACUUCAAAUGCUAACCCGAUGACCCCAGAAAACCGUGUGAGAUUCGUACCGAAGAACCUUGUGGAAUCCCUUUGCUUAGGCCCAACCUGGUCGAUAGCUCGAGAAAG,1.08
CCUCUGGUGCCCACUUUUGUCUCCCACUUUACCAGGUGGGCCACAUGCACUGAGUGUCACUUUGCUGCAGCUCAUUUGUUUCCAAUAAAAGUUUCUGUGACUUAGAUGGA,0.222
GCAGCGUCUGCCAUGAAACCAGUUCACCGCUCCUCUCCAUGAAUUGACCUUUUCAAUUUUUUUAAAGUUAUUUUUGAGACAGAGCCUCAUGUAGCCCAGGCUGGCCUUGA,0.423
UGCAGUGUGUCAUUUGAAAAGAGAUUUGAAGAACUGACAGCUUAAAGCCCAAGCGGGAAACCCGCCCGGGAACUGUUCGCAGUUGACAACAAACUCUGACGCCCUCUGUU,0.331
CUGGCUGACAGAUGCUGCUCUUGGGCACCUGUCCCCACCCCACCUGCCCUGCUGUCCUCUGUAUCACACAAGACGUCUCGCUUGCUGUGUCGUGGUUUAGCUCCUCGGUG,0.37

# Study 5
# Target: Prothrombin, mature alpha-thrombin (F2, Homo sapiens, UniProt P00734)
# Method: aptamer microarray, sandwich
# Molecule type: DNA with 2'F-ANA
# Matrix: in vitro
# Concentration: 200 nM
# Notes: whole 15-mer aptamer, many near background
# With: Cy3 exosite-II aptamer, 400 nM
# Reading: higher = stronger binding
# Strand: GGTTGGTGTGGTTGG
Modification,mean fluorescence intensity [a.u.]
2'F-ANA at 2 4 7 11 12 13 14,121
2'F-ANA at 1 2 3 4 6 8 9 10 13 14,59.1
2'F-ANA at 2 3 4 9 15,616
2'F-ANA at 2 3 6 8 9 10 11 13,292
2'F-ANA at 1 6 8 9 10 12 13 14,51.7
2'F-ANA at 1 2 3 5 7 8 9 11 13,57.3
2'F-ANA at 1 2 3 5 9 10 12 15,47.2
2'F-ANA at 2 4 5 7 10 13 14,44.6
2'F-ANA at 4 5 8 11 12 13 14,50.9
2'F-ANA at 1 2 3 5 6 7 8 9 10 13 14 15,89.9
2'F-ANA at 1 6 8 9 12 15,431
2'F-ANA at 1 2 4 6 7 8 10 12 14 15,51
2'F-ANA at 3 4 6 7 8 10 11 12 14 15,182
2'F-ANA at 1 3 4 5 7 9 10 15,45.5
2'F-ANA at 1 2 5 6 7 8 10 11 12 13 14,50.6
2'F-ANA at 1 2 3 4 5 7 10 14,44.5
2'F-ANA at 1 2 3 4 9 11 12,264
2'F-ANA at 1 5 6 7 8 10 11 12 14,44.9
2'F-ANA at 4 6 7 12,576
2'F-ANA at 1 3 4 5 8 9 10 11 12 13 14 15,46
2'F-ANA at 2 4 5 6 9 11 15,56.8

# A few entries again (study 3):
Strand,E-score
CAGTTGGA,0.0101
ACAAGACG,0.0433
ACTGGGTA,-0.0601
AGACTGGA,-0.194
AGGTAGAA,-0.21
AGCGACAC,-0.0648
GACTGCTA,-0.181
CGCTTACG,0.344
CGATACAG,-0.137
GGACGCCC,0.168
ATTGTCCG,0.168
